Measurements pooled from the literature.
Sample: plasma

CCOC(=O)c1nc2cc(Cl)c(Cl)cc2nc1N1CCN(C(=O)Nc2ccc(N3CCNCC3)cc2)CC1  AUC(0-t) (male mouse; oral, 10 mg/kg): 253 ng·h/mL
N#Cc1cnc2cc(OCC3CCNCC3)c(F)cc2c1Nc1cc(F)c(OCc2cccc(Cl)n2)cc1Cl  AUC(0-t) (female CD-1 mouse; intravenous, 5 mg/kg): 2580 ng·h/mL
CCC(=C(c1ccc(Cl)cc1)c1ccc(OCCN2CCOCC2)cc1)c1ccc(OC)cc1  AUC(0-t) (male C57BL/6 mouse; oral, 400 mg/kg, single dose): 10300 ng·h/mL
CC(C)(O)Cn1nc(-c2ccccc2)c2c(Cl)c(-c3ccccc3)nnc21  AUC(0-t) (mouse; intraperitoneal, 10 mg/kg): 1.98 µM·h
C[C@H]1CN(C(=O)c2cn(-c3ccnc(N)n3)c3cc(C#CC4(O)CCCCC4)ccc23)CCN1  AUC(0-t) (CD-1 mouse; oral, 10 mg/kg): 165 ng·h/mL
NS(=O)(=O)NCC(F)(F)c1ccccc1F  AUC(0-t) (mouse; oral, 5 mg/kg): 17000 ng·h/mL
COc1cccc2c1C(=O)c1c(O)c3c(c(O)c1C2=O)CC(O)(C(=O)CO)CC3OC1CC(NC(=O)C[C@H](N)C(=O)O)C(O)C(C)O1 (stereo partly shown)  AUC(0-t) (mouse; intravenous, 5 mg/kg): 21600 ng·h/mL
CC(C)Cn1c(SCC(=O)N2CCc3ccccc3C2)nc2cc(Cl)ccc2c1=O  AUC(0-t) (male C57BL/6 mouse; intraperitoneal, 10 mg/kg): 5.8 µM·h
C[N+]1(CC(=O)OC2CCCCCCCCCCC2)CCCCC1  AUC(0-t) (mouse; intraperitoneal, 5 mg/kg, single dose): 1870 ng·h/mL
O=C1C2=C(CCN(Cc3ccccc3)C2)N2CCN=C2N1Cc1ccc(C(F)(F)F)cc1  AUC(0-t) (female CD-1 mouse; oral, 50 mg/kg): 5720 ng·h/mL
O.O=C(O)/C=C\C(=O)O.O=c1[nH]cnc2n[nH]cc12  AUC(0-t) (female BALB/c mouse; oral, 30 mg/kg): 69600 ng·h/mL
COC(=O)c1ccc2c(c1)NC(=O)/C2=C(\Nc1ccc2c(c1)CCN2C(=O)CN1CCOCC1)c1ccccc1  AUC(0-t) (CD-1 mouse; oral, 50 mg/kg): 17000 ng·h/mL
Cc1ccc2oc(-c3c4c(N)n[nH]c(=O)c4nn3-c3ccc(NC(=O)/C=C/CN(C)C)cc3)c(C)c2c1  AUC(0-t) (mouse; intravenous, 1 mg/kg): 281 ng·h/mL

For quick reference, copied from above:
Cc1ccc2oc(-c3c4c(N)n[nH]c(=O)c4nn3-c3ccc(NC(=O)/C=C/CN(C)C)cc3)c(C)c2c1  AUC(0-t) (mouse; intravenous, 1 mg/kg): 281 ng·h/mL
NS(=O)(=O)NCC(F)(F)c1ccccc1F  AUC(0-t) (mouse; oral, 5 mg/kg): 17000 ng·h/mL
